Results of several laboratories.
Lines come from different studies, so protocols differ.
Method: steady-state kinetics
B1: GTPBP3 A322P (Homo sapiens, UniProt Q969Y2); chain TRRSSGAPAPGSGATIFALSSGQGRCGIAVIRTSGPASGHALRILTAPRDLPLARHASLRLLSDPRSGEPLDRALVLWFPGPQSFTGEDCVEFHVHGGPAVVSGVLQALGSVPGLRPAEAGEFTRRAFANGKLNLTEVEGLADLIHAETEAQRRQALRQLDGELGHLCRGWAETLTKALAHVEAYIDFGEDDNLEEGVLEQADIEVRALQVALGAHLRDARRGQRLRSGVHVVVTGPPNAGKSSLVNLLSRKPVSIVSPEPGTTRDVLETPVDLAGFPVLLSDTAGLREGVGPVEQEGVRRPRERLEQADLILAMLDASDLASPSSCNFLATVVASVGAQSPSDSSQRLLLVLNKSDLLSPEGPGPGPDLPPHLLLSCLTGEGLDGLLEALRKELAAVCGDPSTDPPLLTRARHQHHLQGCLDALGHYKQSKDLALAAEALRVARGHLTRLTGGGGTEEILDIIFQDFCVGK
B2: enzyme (Oryza sativa, UniProt Q6Z955); chain MMLAYMDHAAAAAEPDAGAEPAVAAVDAAEFAAAMDFGGLVSARPAAVVRPASSDDVASAIRAAARTAHLTVAARGNGHSVAGQAMARGGLVLDMRALPRRMQLVVAPSGEKFADVPGGALWEEVLHWAVSKHGLAPASWTDYLRLTVGGTLSNGGVSGQSFRYGPQVSNVAQLEVVTGDGECHVCSRSADPDLFFAVLGGLGQFGVITRARIPLSPAPQTVRWTRVVYASFADYAADAEWLVTRPPHEAFDYVEGFAFVRSDDPVNGWPTVPIPDGAHFDASLLPANAGPVLYCLEVALYQRGGGGDGGGDDMDKRVGEMMRQLKYVRGLEFAAGVGYVDFLSRVNRVEDEARRNGSWAAPHPWLNLFISSRDIAAFDRAVLNGMLADGVDGPMLIYPMLKSKWDPATSVALPNGEIFYLVALLRFCRPYPGGGPPVDELVAQNNAIIDACRSNGYDYKIYFPSYHAQSDWSRHFGAKWSRFVDRKARYDPLAILAPGQNIFARTPSSVAAAAAVIV
B3: enzyme (Pseudomonas putida, UniProt F8G0M2); chain MKGYNVYANGIRQHIIHFPGTGSPLLLIPGITSPAVTWGFVAERLAKYFDVHVVDVRGRGLSESGDLDYSLDAMADDLVALAQRMEGVVVLGHSMGARIAIRAARKDSQVFSRLILVDPPVSGPGRRPYPAKWSWYAESIRLAQRGCTAMEMRSYCPTWTDEQIELRAEWLHTCQYTAVKTAFDGFHTDDIHTDLAQLTLPIQLVVAGGAEVIQPDDIAEIISLAPQTTTYVVEEAGHMIPWDNLEGFITAVSNR
B4: cyc1 (Streptomyces coelicolor, UniProt Q9K499); chain MHAFPHGTTATPTAIAVPPSLRLPVIEAAFPRQLHPYWPKLQETTRTWLLEKRLMPADKVEEYADGLCYTDLMAGYYLGAPDEVLQAIADYSAWFFVWDDRHDRDIVHGRAGAWRRLRGLLHTALDSPGDHLHHEDTLVAGFADSVRRLYAFLPATWNARFARHFHTVIEAYDREFHNRTRGIVPGVEEYLELRRLTFAHWIWTDLLEPSSGCELPDAVRKHPAYRRAALLSQEFAAWYNDLCSLPKEIAGDEVHNLGISLITHHSLTLEEAIGEVRRRVEECITEFLAVERDALRFADELADGTVRGKELSGAVRANVGNMRNWFSSVYWFHHESGRYMVDSWDDRSTPPYVNNEAAGEK
B5: spoIVA (Bacillus subtilis, UniProt P35149); chain MEKVDIFKDIAERTGGDIYLGVVGAVRTGKSTFIKKFMELVVLPNISNEADRARAQDELPQSAAGKTIMTTEPKFVPNQAMSVHVSDGLDVNIRLVDCVGYTVPGAKGYEDENGPRMINTPWYEEPIPFHEAAEIGTRKVIQEHSTIGVVITTDGTIGDIARSDYIEAEERVIEELKEVGKPFIMVINSVRPYHPETEAMRQDLSEKYDIPVLAMSVESMRESDVLSVLREALYEFPVLEVNVNLPSWVMVLKENHWLRESYQESVKETVKDIKRLRDVDRVVGQFSEFEFIESAGLAGIELGQGVAEIDLYAPDHLYDQILKEVVGVEIRGRDHLLELMQDFAHAKTEYDQVSDALKMVKQTGYGIAAPALADMSLDEPEIIRQGSRFGVRLKAVAPSIHMIKVDVESEFAPIIGTEKQSEELVRYLMQDFEDDPLSIWNSDIFGRSLSSIVREGIQAKLSLMPENARYKLKETLERIINEGSGGLIAIIL
B6: enzyme (Bacillus pumilus, UniProt A8FFI9); chain EARSIAWSVDEFFKNREGTFVIQEVKEKSPWVYNKKRAKERFAPQSTFKVANALIGLQTGAVRDEYDIKYWDGVKREIDNWNRDHTLGSGMRDSVVWYYQAMARDIGEERMNHWVKAIHYGNKDISGGIDQFWLSSTLRISPIEQVRFLKQLYEETLPFDLKNMRTVKRMMVQEEEKHATLYGKTGSGSDIGWYVGFIKHEHKTYILATNIKGTGIEAKDITYRILKKYHLMEASV
B7: TRIB2 (Homo sapiens, UniProt Q92519); chain MNIHRSTPITIARYGRSRNKTQDFEELSSIRSAEPSQSFSPNLGSPSPPETPNLSHCVSCIGKYLLLEPLEGDHVFRAVHLHSGEELVCKVFDISCYQESLAPCFCLSAHSNINQITEIILGETKAYVFFERSYGDMHSFVRTCKKLREEEAARLFYQIASAVAHCHDGGLVLRDLKLRKFIFKDEERTRVKLESLEDAYILRGDDDSLSDKHGCPAYVSPEILNTSGSYSGKAADVWSLGVMLYTMLVGRYPFHDIEPSSLFSKIRRGQFNIPETLSPKAKCLIRSILRREPSERLTSQEILDHPWFSTDFSVSNSAYGAKEVSDQLVPDVNMEENLDPFFN
B8: FDC1 (Saccharomyces cerevisiae, UniProt Q03034); chain MRKLNPALEFRDFIQVLKDEDDLIEITEEIDPNLEVGAIMRKAYESHLPAPLFKNLKGASKDLFSILGCPAGLRSKEKGDHGRIAHHLGLDPKTTIKEIIDYLLECKEKEPLPPITVPVSSAPCKTHILSEEKIHLQSLPTPYLHVSDGGKYLQTYGMWILQTPDKKWTNWSIARGMVVDDKHITGLVIKPQHIRQIADSWAAIGKANEIPFALCFGVPPAAILVSSMPIPEGVSESDYVGAILGESVPVVKCETNDLMVPATSEMVFEGTLSLTDTHLEGPFGEMHGYVFKSQGHPCPLYTVKAMSYRDNAILPVSNPGLCTDETHTLIGSLVATEAKELAIESGLPILDAFMPYEAQALWLILKVDLKGLQALKTTPEEFCKKVGDIYFRTKVGFIVHEIILVADDIDIFNFKEVIWAYVTRHTPVADQMAFDDVTSFPLAPFVSQSSRSKTMKGGKCVTNCIFRQQYERSFDYITCNFEKGYPKGLVDKVNENWKRYGYK
B9: ALDH4A1 S352A (Homo sapiens, UniProt P30038); chain TGAGLRWKHTSSLKVANEPVLAFTQGSPERDALQKALKDLKGRMEAIPCVVGDEEVWTSDVQYQVSPFNHGHKVAKFCYADKSLLNKAIEAALAARKEWDLKPIADRAQIFLKAADMLSGPRRAEILAKTMVGQGKTVIQAEIDAAAELIDFFRFNAKYAVELEGQQPISVPPSTNSTVYRGLEGFVAAISPFNFTAIGGNLAGAPALMGNVVLWKPSDTAMLASYAVYRILREAGLPPNIIQFVPADGPLFGDTVTSSEHLCGINFTGSVPTFKHLWKQVAQNLDRFHTFPRLAGECGGKNFHFVHRSADVESVVSGTLRSAFEYGGQKCSACARLYVPHSLWPQIKGRLLEEHSRIKVGDPAEDFGTFFSAVIDAKSFARIKKWLEHARSSPSLTILAGGKCDDSVGYFVEPCIVESKDPQEPIMKEEIFGPVLSVYVYPDDKYKETLQLVDSTTSYGLTGAVFSQDKDVVQEATKVLRNAAGNFYINDKSTGSIVGQQPFGGARASGTNDKPGGPHYILRWTSPQVIKETHKPLGDWSYAYMQ
Chain of UniProt P22303 (whole entry, looked up): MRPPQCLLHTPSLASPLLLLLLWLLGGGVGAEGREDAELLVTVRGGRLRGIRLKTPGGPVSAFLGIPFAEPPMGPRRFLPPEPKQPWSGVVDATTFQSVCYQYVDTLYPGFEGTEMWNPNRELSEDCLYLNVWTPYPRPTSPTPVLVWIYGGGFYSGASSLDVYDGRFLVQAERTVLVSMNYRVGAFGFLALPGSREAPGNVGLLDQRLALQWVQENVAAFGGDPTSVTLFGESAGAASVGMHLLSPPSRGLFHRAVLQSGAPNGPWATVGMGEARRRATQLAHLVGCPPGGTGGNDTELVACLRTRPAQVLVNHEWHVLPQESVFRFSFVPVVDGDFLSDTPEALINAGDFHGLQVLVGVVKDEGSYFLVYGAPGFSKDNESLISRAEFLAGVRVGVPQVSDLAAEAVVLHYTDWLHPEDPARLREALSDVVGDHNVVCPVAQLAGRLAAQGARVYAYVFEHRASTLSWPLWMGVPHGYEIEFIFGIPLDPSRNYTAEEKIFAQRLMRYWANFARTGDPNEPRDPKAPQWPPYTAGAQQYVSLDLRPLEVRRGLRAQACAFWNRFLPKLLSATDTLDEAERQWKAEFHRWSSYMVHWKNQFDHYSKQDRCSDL
Chain of UniProt Q04JB0 (whole entry, looked up): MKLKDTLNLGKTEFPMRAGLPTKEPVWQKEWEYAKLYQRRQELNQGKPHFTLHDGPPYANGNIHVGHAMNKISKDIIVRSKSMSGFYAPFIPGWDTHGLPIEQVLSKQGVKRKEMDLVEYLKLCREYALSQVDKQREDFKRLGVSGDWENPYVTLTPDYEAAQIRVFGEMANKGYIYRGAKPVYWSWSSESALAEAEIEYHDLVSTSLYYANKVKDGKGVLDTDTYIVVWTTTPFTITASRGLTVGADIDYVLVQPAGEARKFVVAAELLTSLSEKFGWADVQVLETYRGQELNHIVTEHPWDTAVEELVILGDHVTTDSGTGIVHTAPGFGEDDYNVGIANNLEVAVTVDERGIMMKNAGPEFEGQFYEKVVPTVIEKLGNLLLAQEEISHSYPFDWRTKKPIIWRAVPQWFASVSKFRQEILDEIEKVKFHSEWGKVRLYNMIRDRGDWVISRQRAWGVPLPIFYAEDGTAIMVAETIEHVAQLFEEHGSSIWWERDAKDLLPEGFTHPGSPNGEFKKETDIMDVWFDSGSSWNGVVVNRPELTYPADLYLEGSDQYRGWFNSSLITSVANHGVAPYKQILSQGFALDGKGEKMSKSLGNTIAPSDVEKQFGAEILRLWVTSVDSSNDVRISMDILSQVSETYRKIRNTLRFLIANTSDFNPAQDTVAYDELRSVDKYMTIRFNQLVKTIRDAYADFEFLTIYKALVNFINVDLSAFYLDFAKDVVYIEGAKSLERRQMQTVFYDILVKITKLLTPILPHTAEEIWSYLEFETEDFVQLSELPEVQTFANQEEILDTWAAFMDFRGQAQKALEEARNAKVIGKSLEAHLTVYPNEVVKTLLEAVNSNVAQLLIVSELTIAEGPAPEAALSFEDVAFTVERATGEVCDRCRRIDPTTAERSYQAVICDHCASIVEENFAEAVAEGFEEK

| Substance | substrate | setting | Km |
| --- | --- | --- | --- |
| BCAA decarboxylase (Echinacea purpurea, UniProt A0A1A8JL35) | CC(C)[C@H](N)C(=O)O | pH 7.5, 37 °C, with: PLP 1 mM | 15800 µM |
| B1 (GTPBP3 A322P) | Nc1nc2c(ncn2[C@@H]2O[C@H](COP(=O)(O)OP(=O)(O)OP(=O)(O)O)[C@@H](O)[C@H]2O)c(=O)[nH]1 | pH 8, 37 °C, KCl 300 mM | 91.3 µM |
| B2 (enzyme) | C/C(=C\CNc1ncnc2[nH]cnc12)CO | pH 9.5, 40 °C, apparent | 36.1 µM |
| B3 (enzyme) | O=CNC(=O)/C=C\C(=O)O | pH 6.7, 25 °C | 940 µM |
| ileS (Streptococcus pneumoniae, UniProt Q04JB0) | CC(C)C[C@H](N)C(=O)O | pH 7.2, 37 °C, with: ATP 2 mM | 3200 µM |
| B4 (cyc1) | CC(C)=CCC/C(C)=C/CC/C(C)=C/CO[P@@](=O)(O)OP(=O)(O)O | pH 6.5, 30 °C, with: MgCl2 10 mM | 0.33 µM |
| B5 (spoIVA) | Nc1ncnc2c1ncn2[C@@H]1O[C@H](COP(=O)(O)OP(=O)(O)OP(=O)(O)O)[C@@H](O)[C@H]1O | pH 7.5, 37 °C, NaCl 150 mM | 412 µM |
| B6 (enzyme) | C[C@@H](O)[C@H]1C(=O)N2C(C(=O)O)=C(S[C@@H]3CN[C@H](C(=O)N(C)C)C3)[C@H](C)[C@H]12 | pH 7 | 4.2 µM |
| B7 (TRIB2) | Nc1ncnc2c1ncn2[C@@H]1O[C@H](COP(=O)(O)OP(=O)(O)OP(=O)(O)O)[C@@H](O)[C@H]1O | pH 7.4, 30 °C, NaCl 100 mM, no added metal | 660 µM |
| B8 (FDC1) | O=C(O)/C=C/c1ccc(O)cc1 | pH 7, 25 °C, apparent kcat, incomplete cofactor occupancy, apparent | 110 µM |
| ACHE (Homo sapiens, UniProt P22303) | CC(=O)SCC[N+](C)(C)C | pH 8, 22 °C | 110 µM |
| B9 (ALDH4A1 S352A) | O=C(O)[C@@H]1CCC=N1 | pH 7, 20 °C, value for L-P5C, with: NAD+ | 51 µM |
